Measured values from different studies.
Parts stem from different laboratories: compare values within a part only. Values joined by “and” are separate records of one study, mostly repeats; a detail may differ.
UniProt P33981, sequence (whole entry, looked up): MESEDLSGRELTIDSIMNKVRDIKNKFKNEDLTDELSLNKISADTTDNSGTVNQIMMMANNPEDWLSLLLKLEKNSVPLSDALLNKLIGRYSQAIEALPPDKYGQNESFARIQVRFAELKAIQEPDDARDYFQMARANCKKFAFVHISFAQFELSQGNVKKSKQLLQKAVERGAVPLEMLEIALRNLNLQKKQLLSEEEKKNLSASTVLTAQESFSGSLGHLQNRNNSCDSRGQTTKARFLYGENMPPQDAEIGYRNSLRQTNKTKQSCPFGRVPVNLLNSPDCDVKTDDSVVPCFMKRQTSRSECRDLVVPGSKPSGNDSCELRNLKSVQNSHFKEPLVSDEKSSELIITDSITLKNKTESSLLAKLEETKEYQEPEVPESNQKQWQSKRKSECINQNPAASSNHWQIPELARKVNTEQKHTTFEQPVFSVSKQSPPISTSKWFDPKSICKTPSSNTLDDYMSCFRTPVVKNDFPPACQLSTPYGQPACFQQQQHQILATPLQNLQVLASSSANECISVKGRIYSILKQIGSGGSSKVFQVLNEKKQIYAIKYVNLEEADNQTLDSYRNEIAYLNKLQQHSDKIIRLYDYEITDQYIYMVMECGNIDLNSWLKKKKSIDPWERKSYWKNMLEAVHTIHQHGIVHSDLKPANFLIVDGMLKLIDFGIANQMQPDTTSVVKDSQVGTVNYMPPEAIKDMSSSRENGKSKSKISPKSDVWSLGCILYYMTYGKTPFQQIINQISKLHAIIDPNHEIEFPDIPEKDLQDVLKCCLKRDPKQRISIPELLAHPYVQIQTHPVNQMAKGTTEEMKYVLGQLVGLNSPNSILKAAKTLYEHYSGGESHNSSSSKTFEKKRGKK
UniProt Q13237, sequence (whole entry, looked up): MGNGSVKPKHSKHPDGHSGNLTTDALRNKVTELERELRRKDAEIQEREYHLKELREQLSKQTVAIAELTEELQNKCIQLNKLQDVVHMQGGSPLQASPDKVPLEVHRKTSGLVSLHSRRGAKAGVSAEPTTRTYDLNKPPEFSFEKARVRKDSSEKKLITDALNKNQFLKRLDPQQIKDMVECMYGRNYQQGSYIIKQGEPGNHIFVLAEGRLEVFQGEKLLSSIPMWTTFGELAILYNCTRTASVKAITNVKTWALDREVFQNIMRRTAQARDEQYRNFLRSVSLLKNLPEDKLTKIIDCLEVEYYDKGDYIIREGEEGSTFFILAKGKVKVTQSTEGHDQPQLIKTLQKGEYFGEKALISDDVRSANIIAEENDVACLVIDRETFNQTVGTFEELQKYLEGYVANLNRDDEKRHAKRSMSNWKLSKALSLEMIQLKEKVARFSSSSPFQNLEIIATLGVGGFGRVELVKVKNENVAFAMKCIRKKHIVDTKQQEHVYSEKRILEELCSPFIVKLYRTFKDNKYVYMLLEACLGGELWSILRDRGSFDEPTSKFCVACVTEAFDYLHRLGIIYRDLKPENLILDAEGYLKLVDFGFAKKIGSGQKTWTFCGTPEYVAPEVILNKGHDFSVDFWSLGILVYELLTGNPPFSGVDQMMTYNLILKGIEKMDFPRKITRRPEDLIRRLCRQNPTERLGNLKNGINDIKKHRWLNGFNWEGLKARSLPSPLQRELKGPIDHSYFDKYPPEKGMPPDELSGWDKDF
UniProt Q8WXR4, sequence (whole entry, looked up): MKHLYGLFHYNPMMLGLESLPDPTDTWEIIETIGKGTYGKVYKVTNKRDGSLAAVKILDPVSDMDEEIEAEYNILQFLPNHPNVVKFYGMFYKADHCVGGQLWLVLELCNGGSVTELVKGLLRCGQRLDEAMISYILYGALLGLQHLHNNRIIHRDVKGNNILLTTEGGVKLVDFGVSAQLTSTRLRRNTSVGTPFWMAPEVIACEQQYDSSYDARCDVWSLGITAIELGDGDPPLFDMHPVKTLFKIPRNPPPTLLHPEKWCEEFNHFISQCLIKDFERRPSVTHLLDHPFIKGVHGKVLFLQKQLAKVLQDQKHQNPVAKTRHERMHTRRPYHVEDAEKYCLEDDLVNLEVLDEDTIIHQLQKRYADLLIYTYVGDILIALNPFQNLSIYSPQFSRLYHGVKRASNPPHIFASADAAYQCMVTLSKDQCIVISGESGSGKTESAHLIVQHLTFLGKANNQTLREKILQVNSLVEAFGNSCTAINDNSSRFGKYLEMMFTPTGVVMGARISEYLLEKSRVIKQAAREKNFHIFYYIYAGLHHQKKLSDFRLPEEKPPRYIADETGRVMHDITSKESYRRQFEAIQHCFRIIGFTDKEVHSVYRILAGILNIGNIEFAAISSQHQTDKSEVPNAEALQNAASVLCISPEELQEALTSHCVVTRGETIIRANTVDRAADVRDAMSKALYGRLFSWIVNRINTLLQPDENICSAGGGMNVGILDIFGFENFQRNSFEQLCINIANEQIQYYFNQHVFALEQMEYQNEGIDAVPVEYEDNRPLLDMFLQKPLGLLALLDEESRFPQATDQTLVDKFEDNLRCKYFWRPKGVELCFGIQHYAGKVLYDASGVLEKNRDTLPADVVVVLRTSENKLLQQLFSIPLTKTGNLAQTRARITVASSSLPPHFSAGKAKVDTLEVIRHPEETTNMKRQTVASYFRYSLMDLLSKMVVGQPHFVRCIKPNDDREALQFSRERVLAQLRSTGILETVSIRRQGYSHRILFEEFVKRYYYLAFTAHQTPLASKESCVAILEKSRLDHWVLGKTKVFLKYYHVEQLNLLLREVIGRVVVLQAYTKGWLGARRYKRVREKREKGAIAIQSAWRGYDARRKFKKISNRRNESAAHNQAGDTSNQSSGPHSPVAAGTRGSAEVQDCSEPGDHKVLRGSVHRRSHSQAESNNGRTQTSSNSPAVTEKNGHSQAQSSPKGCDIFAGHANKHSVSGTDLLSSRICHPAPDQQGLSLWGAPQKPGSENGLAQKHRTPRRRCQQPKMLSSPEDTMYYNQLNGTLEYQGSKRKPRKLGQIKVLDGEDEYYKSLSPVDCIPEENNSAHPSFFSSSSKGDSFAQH
UniProt P07333, sequence (whole entry, looked up): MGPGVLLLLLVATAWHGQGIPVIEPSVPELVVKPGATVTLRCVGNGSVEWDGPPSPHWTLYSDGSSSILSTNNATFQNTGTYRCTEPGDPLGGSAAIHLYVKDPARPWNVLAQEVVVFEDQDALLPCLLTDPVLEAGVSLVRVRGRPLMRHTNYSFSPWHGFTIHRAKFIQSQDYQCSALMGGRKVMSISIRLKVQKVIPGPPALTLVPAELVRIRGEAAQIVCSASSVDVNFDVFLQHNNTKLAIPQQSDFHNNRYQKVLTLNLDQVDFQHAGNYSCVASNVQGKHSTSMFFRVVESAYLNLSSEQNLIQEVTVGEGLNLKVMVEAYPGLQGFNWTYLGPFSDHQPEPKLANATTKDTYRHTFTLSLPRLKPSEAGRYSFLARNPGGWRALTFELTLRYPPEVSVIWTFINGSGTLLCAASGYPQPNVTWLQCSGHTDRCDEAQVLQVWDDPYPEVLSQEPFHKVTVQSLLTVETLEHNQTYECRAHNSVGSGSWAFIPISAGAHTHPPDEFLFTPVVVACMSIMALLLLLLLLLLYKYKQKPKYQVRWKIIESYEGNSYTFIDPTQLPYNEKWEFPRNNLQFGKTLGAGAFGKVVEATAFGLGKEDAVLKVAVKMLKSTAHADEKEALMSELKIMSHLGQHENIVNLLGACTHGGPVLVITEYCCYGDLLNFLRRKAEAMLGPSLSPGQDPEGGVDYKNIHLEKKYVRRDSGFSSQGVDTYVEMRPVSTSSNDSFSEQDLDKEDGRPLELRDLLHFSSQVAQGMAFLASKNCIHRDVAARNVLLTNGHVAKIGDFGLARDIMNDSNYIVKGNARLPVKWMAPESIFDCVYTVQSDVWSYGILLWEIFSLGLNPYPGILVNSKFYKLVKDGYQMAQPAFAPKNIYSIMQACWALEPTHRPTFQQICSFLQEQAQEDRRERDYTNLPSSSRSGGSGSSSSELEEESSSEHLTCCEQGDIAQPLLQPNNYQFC
UniProt Q9UQ88, sequence (whole entry, looked up): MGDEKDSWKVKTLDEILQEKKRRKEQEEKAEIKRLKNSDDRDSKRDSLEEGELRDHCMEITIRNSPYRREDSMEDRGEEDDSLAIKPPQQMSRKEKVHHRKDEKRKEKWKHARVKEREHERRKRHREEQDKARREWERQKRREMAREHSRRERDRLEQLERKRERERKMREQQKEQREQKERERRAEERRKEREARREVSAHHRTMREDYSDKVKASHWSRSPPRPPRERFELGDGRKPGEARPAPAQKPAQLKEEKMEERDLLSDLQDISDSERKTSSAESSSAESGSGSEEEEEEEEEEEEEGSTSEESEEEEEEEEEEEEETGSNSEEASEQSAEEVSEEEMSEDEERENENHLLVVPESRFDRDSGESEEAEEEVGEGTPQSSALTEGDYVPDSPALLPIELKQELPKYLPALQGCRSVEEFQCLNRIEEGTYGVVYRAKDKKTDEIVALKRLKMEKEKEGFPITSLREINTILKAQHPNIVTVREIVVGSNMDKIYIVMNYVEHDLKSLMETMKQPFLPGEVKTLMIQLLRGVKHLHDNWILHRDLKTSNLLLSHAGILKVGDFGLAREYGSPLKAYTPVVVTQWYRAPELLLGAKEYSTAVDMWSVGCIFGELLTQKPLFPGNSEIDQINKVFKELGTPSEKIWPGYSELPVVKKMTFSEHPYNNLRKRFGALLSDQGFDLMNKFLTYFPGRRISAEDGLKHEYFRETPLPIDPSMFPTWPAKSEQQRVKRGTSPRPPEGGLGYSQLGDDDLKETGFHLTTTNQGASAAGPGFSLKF
UniProt Q9HC98, sequence (whole entry, looked up): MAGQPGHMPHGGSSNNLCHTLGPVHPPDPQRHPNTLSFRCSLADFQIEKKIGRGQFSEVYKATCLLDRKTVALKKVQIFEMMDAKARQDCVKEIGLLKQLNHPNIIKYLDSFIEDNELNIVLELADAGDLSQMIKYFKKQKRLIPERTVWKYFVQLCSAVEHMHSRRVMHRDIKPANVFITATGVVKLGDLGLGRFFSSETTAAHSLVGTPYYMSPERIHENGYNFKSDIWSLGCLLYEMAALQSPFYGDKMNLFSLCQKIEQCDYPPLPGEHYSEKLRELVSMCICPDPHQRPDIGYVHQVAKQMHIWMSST

Set 1 — cell line: MV4-11 expressing HiBiT-WDR5; technique: ATPlite; sample: RPMI with 10% FBS; time: 24 h
SMILES: C[C@@H]1CN(c2ccc(-c3cc(C(=O)NCCOCCOCCOCCOCCOCCOCCNC(=O)/C=C/c4[nH]cc(C(=O)N[C@@H](CC(N)=O)c5ccc(F)c(Cl)c5)c4-c4ccc(Cl)cc4F)ccc3F)cc2NC(=O)c2ccc(F)cc2C(F)(F)F)C[C@H](C)N1C
The viability was 102% and 86.1% and 93.5% (5.15 nM).
It gave 113% and 108% and 98.1% for viability (585 nM).
For 13.3 nM: viability read 89.6% and 88.6% and 107%.
For 227 nM: viability read 107% and 127% and 120%.

Set 2 — technique: competition with immobilised ligand; tested at: 1 µM
Structure (SMILES): CN(C)C(=O)Cn1cc(-c2nc([C@@](C)(c3ccc(-c4cnc(N)nc4)cc3)C3CC3)no2)cn1
It gave 94% for remaining binding (FLT3 (Homo sapiens, UniProt P36888, K663Q); cell-free assay).
For PDGFRB (Homo sapiens, UniProt P09619); cell-free assay: remaining binding read 82%.
It gave 100% for remaining binding (CDK11A (Homo sapiens, UniProt Q9UQ88); binding).
It gave 57% for remaining binding (DSTYK (Homo sapiens, UniProt Q6XUX3); cell-free assay).
KIT (Homo sapiens, UniProt P10721, D816H); cell-free assay — remaining binding: 100%.
For RIPK4 (Homo sapiens, UniProt P57078); cell-free assay: remaining binding read 93%.
For NEK6 (Homo sapiens, UniProt Q9HC98); cell-free assay: remaining binding read 100%.
WNK4 (Homo sapiens, UniProt Q96J92); cell-free assay — remaining binding: 93%.
It gave 100% for remaining binding (ROCK2 (Homo sapiens, UniProt O75116); cell-free assay).
EGFR (Homo sapiens, UniProt P00533, L858R/T790M); cell-free assay — remaining binding: 93%.
The remaining binding was 85% (PRKG2 (Homo sapiens, UniProt Q13237); cell-free assay).
The remaining binding was 89% (LTK (Homo sapiens, UniProt P29376); cell-free assay).
CDK2 (Homo sapiens, UniProt P24941); cell-free assay — remaining binding: 96%.
CAMK2D (Homo sapiens, UniProt Q13557); cell-free assay — remaining binding: 100%.
It gave 96% for remaining binding (Macrophage colony-stimulating factor 1 receptor, autoinhibited (CSF1R, Homo sapiens, UniProt P07333); cell-free assay).
For INSRR (Homo sapiens, UniProt P14616); cell-free assay: remaining binding read 99%.
For Myosin-IIIb (MYO3B, Homo sapiens, UniProt Q8WXR4); binding: remaining binding read 70%.
For IKBKE (Homo sapiens, UniProt Q14164); cell-free assay: remaining binding read 86%.

Set 3 — observed: binding; tested at: 1 µM
SMILES: CN1CCN(C(=O)c2ccc(NC(=O)Nc3ccc(N(C)c4ccnc(Nc5ccc(CS(C)(=O)=O)cc5)n4)cc3)cc2)CC1
The remaining binding was 51% (PRKCQ (Homo sapiens, UniProt Q04759)).
The remaining binding was 100% (PIK3CA (Homo sapiens, UniProt P42336, H1047Y)).
TTK (Homo sapiens, UniProt P33981); competition with immobilised ligand — remaining binding: 61%.
It gave 28% for remaining binding (ANKK1 (Homo sapiens, UniProt Q8NFD2)).
The remaining binding was 82% (NEK5 (Homo sapiens, UniProt Q6P3R8)).

Set 4 — cell line: A-375; tested at: 100 µM; time: 18 h
For `CC1(C)S[C@@H]2[C@H](NC(=O)Cc3ccccc3)C(=O)N2[C@H]1C(=O)O`, the viability was 106%.
With `C[C@]12CC[C@@H]3c4ccc(O)cc4CC[C@H]3[C@@H]1C[C@@H](O)[C@@H]2O` the viability was 71.2%.
`O=C1c2c(O)ccc(O)c2C(=O)c2c(NCCNCCO)ccc(NCCNCCO)c21` gave a viability of 3.97%.
`CC(=O)[C@H]1CC[C@H]2[C@@H]3C[C@H](C)C4=CC(=O)CC[C@]4(C)[C@H]3[C@@H](O)C[C@]12C` has a viability of 65%.
The viability of `CNCC(O)c1ccc(O)c(O)c1` (racemic) is reported as 144%.
The viability of `CN(C)CCOC(=O)COc1ccc(Cl)cc1` is reported as 97.6%.
The viability of `CNCC[C@@H](Oc1ccccc1C)c1ccccc1` is reported as 62.2%.

Mixed results
`CCOC(=O)[C@@H]1CSCC(=O)N[C@@H](CC)C(=O)N(C)[C@@H](C)C(=O)N[C@@H](CC(C)C)C(=O)N2CCC[C@@H]2C(=O)N(CC)CC(=O)N[C@H](CC(C)C)C(=O)N(C)[C@H](C)C(=O)N[C@@H](CC(C)C)C(=O)N1C` gave a logD of -0.388 (hydrocarbon/water).
`CC(C)n1cnc(-c2ccc(F)cc2)c1-c1ncc(C(=O)Nc2ccc(N3CCN(C)CC3)cc2)[nH]1`: “patients with electrocardiogram QT prolonged” 0% (human, idiopathic pulmonary fibrosis; 60 mg once daily, trial, treatment-emergent).
The oral bioavailability of `O=C1CCC(N2Cc3cc(C4CCN(Cc5ccccc5)CC4)ccc3C2=O)C(=O)N1` (stereo not shown) is reported as 41.3% (Sprague Dawley rat, male, plasma; oral, 3.0 mg/kg).
